Assay results of several laboratories.
Values joined by “and” are separate records of one study, mostly repeats; a detail may differ.

CCN(CC)CC(=O)Nc1cccc(-n2cc(-c3ccc4ccc(-c5cn(-c6cccc(NC(=O)CN(CC)CC)c6)nn5)cc4c3)nn2)c1  fold regulation (RCC4; PCR angiogenesis array, refers to: TYMP; 5 x IC50, 2 h, normoxia; relative to: untreated): 1.09 fold
Cn1ncc2cc(-c3cncc(Cl)c3N3CCC4(CCNC4=O)CC3)ccc21  log2 fold change (LS174T; gene expression, microarray, refers to: RPSA mRNA; concentration not given, 4 h; relative to: untreated cells): 1.8
CO[C@@H]1[C@@H](OC(N)=O)[C@@H](O)[C@H](Oc2ccc3c(O)c(NC(=O)c4ccc(O)c(CC=C(C)C)c4)c(=O)oc3c2C)OC1(C)C  colony survival (HCT-116 BRCA2 wild-type; 200 µM, replicate B; relative to: untreated): 43.2%
Cc1ncsc1-c1ccc(C(C)NC(=O)C2CC(O)CN2C(=O)C(NC(=O)CCCCCCCCCCN2CCCC(Nc3ncc(Cl)c(Nc4ccccc4S(=O)(=O)C(C)C)n3)C2)C(C)(C)C)cc1 (stereo not shown)  log2 fold change (22Rv1; RNA-seq, refers to: TOE1 mRNA; concentration not given; relative to: DMSO): -1.14
CCOc1cncc(-c2ccc(NC(=O)C3(c4ccnc(NS(=O)(=O)C5CC5)n4)CCOCC3)nc2)n1  IC50 (colon cancer; cell viability, CellTiter-Glo; DMSO 0.1%; 72 h, line code 1103): 64 nM
CN1CCCNC(=O)c2cccc(c2)C(=O)NCCCN(C)CCCNc2cccc3c2C(=O)c2cccc(c2C3=O)NCCC1  log2 fold change (SAS; RNA-Seq, refers to: LDB3 mRNA; 1 µM, 6 h; relative to: untreated cells): 3.25
C=C(C)C1CC=C(CN2CCN(Cc3ccccc3)CC2)CC1 (stereo not shown)  translation activity (Trypanosoma cruzi; reporter mRNA translation, inhibitor, refers to: Renilla luciferase mRNA; cell-free extract; concentration not given, test 1; relative to: positive over negative control): 101% and 97.4%
CC(C)c1ccc(N(C)c2ccc3c(c2)OCC[C@H]3CNc2cnccc2C(=O)O)cc1  IC50 (MM1.S; cell proliferation; 168 h): 9 nM
O=C(NCc1cn(-c2ccccc2)nc1-c1ccccc1)c1cc([N+](=O)[O-])cc([N+](=O)[O-])c1  translation activity (Trypanosoma cruzi; reporter mRNA translation, inhibitor, refers to: Renilla luciferase mRNA; cell-free extract; concentration not given, test 3; relative to: positive over negative control): 110%
CNS(=O)(=O)Nc1nccc(Cc2c(C)c3ccc(Oc4ncccc4F)cc3oc2=O)c1F  IC50 (KARPAS-299; cell viability; 7 days): > 1000 nM

Excerpt of the above:
CCOc1cncc(-c2ccc(NC(=O)C3(c4ccnc(NS(=O)(=O)C5CC5)n4)CCOCC3)nc2)n1  IC50 (colon cancer; cell viability, CellTiter-Glo; DMSO 0.1%; 72 h, line code 1103): 64 nM
